{"data": "Assay results from different studies", "organism": "Staphylococcus aureus"}
{"SMILES": "CC[S+]([O-])C1C(CO)OC(OC2C(N)CC(N)C(O)C2OC2OC(CO)C(OC3OC(CN)C(O)C(O)C3N)C2O)C(N)C1O (mixture of isomers)", "test system": "methicillin-resistant, AAC(6') ANT(4',4'') APH(3')", "MIC": "64 to 128 µg/mL"}
{"SMILES": "CC(=O)[O-].O.S=c1[nH]c2ccccc2[nH]1.S=c1[nH]c2ccccc2[nH]1.[Ag+].c1ccc(P(c2ccccc2)c2ccccc2)cc1.c1ccc(P(c2ccccc2)c2ccccc2)cc1", "assay": "agar dilution", "test system": "methicillin-resistant", "setting": "24 h, 37 °C", "MIC": "7 µg/mL"}
{"SMILES": "CC(C)[C@H](NC(=O)[C@H](CCCNC(=N)N)NC(=O)[C@H](CCCNC(=N)N)NC(=O)[C@@H](NC(=O)[C@H](C)NC(=O)[C@H](CC(N)=O)NC(=O)[C@H](CCCNC(=N)N)NC(=O)[C@@H](NC(=O)[C@H](CCCNC(=N)N)NC(=O)[C@H](CCCNC(=N)N)NC(=O)[C@@H](NC(=O)[C@@H](NC(=O)[C@H](CCCNC(=N)N)NC(=O)[C@H](CCCNC(=N)N)NC(=O)[C@H](Cc1c[nH]c2ccccc12)NC(=O)[C@H](Cc1c[nH]c2ccccc12)NC(=O)CN)[C@@H](C)O)C(C)C)C(C)C)C(C)C)C(=O)O", "assay": "bacterial growth", "test system": "ATCC 25923", "setting": "18 h", "MIC": "256 µg/mL"}
{"SMILES": "CC[C@H](C)[C@H](NC(=O)[C@H](CCCN)NC(=O)[C@H](CC(N)=O)NC(=O)[C@H](Cc1c[nH]c2ccccc12)NC(=O)[C@H](Cc1ccccc1)NC(=O)[C@H](CCCN)NC(=O)[C@H](CCCNC(=N)N)NC(=O)[C@H](CC(C)C)NC(=O)[C@H](Cc1c[nH]c2ccccc12)NC(=O)[C@H](CCCN)NC(=O)[C@H](CCCNC(=N)N)NC(=O)[C@H](CC(C)C)NC(=O)CNC(C)=O)C(=O)N[C@@H](CCCN)C(=O)N[C@@H](CCCNC(=N)N)C(N)=O", "assay": "broth microdilution", "test system": "multidrug-resistant", "MIC": "3.12 µM"}
{"SMILES": "CC(C)=CCc1cc([C@@H]2CC(=O)c3c(O)cc(O)c(CC=C(C)C)c3O2)cc(CC=C(C)C)c1O", "MIC": "inactive"}
{"SMILES": "CCCCCC/C=C\\CCCCCCC[C@@H](O)Cc1cc(O)cc(O)c1", "assay": "microbial growth, broth dilution", "test system": "USA300", "setting": "drug-resistant strain", "MIC": "8 µg/mL"}
{"SMILES": "N=C(N)NCCC[C@@H]1NC(=O)[C@H](CCCNC(=N)N)NC(=O)[C@H](CCCNC(=N)N)NC(=O)[C@H](CCCNC(=N)N)NC(=O)[C@H](Cc2c[nH]c3ccccc23)NC(=O)[C@H](CCCNC(=N)N)NC(=O)[C@H](CCCNC(=N)N)NC(=O)[C@@H](N)CCCn2cc(nn2)C[C@@H](C(N)=O)NC1=O", "setting": "24 h, 37 °C, in 0.01% acetic acid", "MIC": "125 µg/mL"}
{"SMILES": "N=C(N)NCCC[C@@H]1NC(=O)[C@H](CCCCN)NC(=O)[C@H](CCCNC(=N)N)NC(=O)[C@H](CCCNC(=N)N)NC(=O)[C@H](CCCNC(=N)N)NC(=O)[C@H](CCCNC(=N)N)NC1=O", "assay": "broth microdilution", "test system": "MRSA ATCC 43300", "setting": "37 °C", "MIC": "> 114 µg/mL"}
{"SMILES": "CCO[C@H]1[C@H](O)[C@@H](N)[C@@H](O[C@H]2[C@H](O[C@@H]3O[C@H](CO)[C@@H](O[C@H]4O[C@@H](CN)[C@@H](O)[C@H](O)[C@H]4N)[C@H]3O)[C@@H](O)[C@H](N)C[C@@H]2N)O[C@@H]1CO", "assay": "broth microdilution", "test system": "MRSA isolate AG 039", "MIC": "16 µg/mL"}
{"SMILES": "CCCCCCCCOC(=O)[C@@H]1NC(=O)[C@@H]2Cc3ccc(cc3)Oc3cc4cc(c3O)-c3ccc5c(c[nH]c5c3)C[C@@H](NC(=O)C(N)c3ccc(O)cc3)C(=O)N[C@H](c3ccc(O)cc3)C(=O)N[C@H]4C(=O)N[C@@H](C(=O)N2C)c2ccc(cc2)Oc2cc1ccc2O (stereo partly shown)", "test system": "ATCC 33591 MRSA, Mueller-Hinton broth", "MIC": "> 128 µg/mL"}
{"SMILES": "CCCCCCCC(=O)N(C)[C@H](CO)C(=O)N[C@H](C)C(=O)NCC(=O)N(C)[C@@H]1C(=O)N[C@@H](C)C(=O)N[C@H](C(=O)O)Cc2ccc(O)c(c2)-c2cc1ccc2O", "assay": "broth microdilution", "test system": "NCTC 8325 lepB P29S (PAS8001)", "setting": "24 h, 37 °C", "MIC": "> 64 µg/mL"}
{"SMILES": "O=C1c2ccccc2NC(c2ccc(Cl)c([N+](=O)[O-])c2)N1/N=C/c1ccc(Cl)c([N+](=O)[O-])c1 (stereo not shown)", "assay": "microbial growth, broth dilution", "test system": "MRSA", "setting": "24 h, drug-resistant strain, clinical isolate", "MIC": "> 256 µg/mL"}
{"SMILES": "CC(C)C[C@@H]1NC(=O)[C@H](C)NC(=O)[C@H](NC(=O)[C@H](C)NC(=O)[C@@H](CCCCN)NC(=O)[C@@H](CC(C)C)NC(=O)[C@@H](N)Cc2ccccc2)[C@H](C(N)=O)OC(=O)[C@H](CC(C)C)NC1=O", "test system": "MRSA ATCC 700698", "setting": "TFA salt", "MIC": "8 µg/mL"}
{"SMILES": "CC[C@H](C)[C@H](NC(=O)[C@H](NC(=O)[C@@H](CCCNC(=N)N)NC(=O)[C@@H](N)COC(=O)[C@@H](NC(=O)[C@@H](Cc1ccccc1)NC)[C@@H](C)CC)[C@@H](C)CC)C(=O)N[C@@H](CO)C(=O)N[C@H]1C(=O)N[C@@H](C)C(=O)N[C@@H](CC(C)C)C(=O)N[C@@H]([C@@H](C)CC)C(=O)O[C@H]1C", "assay": "broth microdilution", "test system": "ATCC 700698, MRSA, brain heart infusion broth", "setting": "16 h, 37 °C", "MIC": "0.5 to 1 µg/mL"}
{"SMILES": "CC(C)CCCCCCCCC/C=C/C(=O)N[C@@H](CC(=O)O)C(=O)N[C@H]1CNC(=O)[C@@H]2CCCN2C(=O)[C@H](C)NC(=O)[C@@H]([C@@H](C)O)NC(=O)CNC(=O)[C@H](CC(=O)O)NC(=O)CNC(=O)[C@H](CC(=O)O)NC(=O)CNC(=O)[C@H]2CCCCN2C1=O", "test system": "MRSA USA300", "setting": "with: Ca2+ 10 mM", "MIC": "8 µg/mL"}
{"SMILES": "CC(CCCOC(=O)CCC[N+](C)(C)C)C1CCC2C3CCC4CC(OC(=O)CCC[N+](C)(C)C)CCC4(C)C3CC(OC(=O)CCC[N+](C)(C)C)C12C (stereo not shown)", "assay": "microbial growth", "test system": "ATCCBAA44 MRSA", "setting": "drug-resistant strain", "MIC": "19.5 µg/mL"}
{"SMILES": "COc1ccc2c(c1)[O][Au-]13[O]c4ccc5ccc(OC)cc5c4C=[N+]1C1CCCCC1[N+]3=C2.F[P-](F)(F)(F)(F)F (stereo not shown)", "assay": "bacterial growth, broth microdilution", "test system": "vancomycin-intermediate", "setting": "24 h", "MIC": "> 20 µM"}
{"SMILES": "C/C(=N\\NC(=N)N)c1nnn(-c2ccc(S(=O)(=O)NCC(C)C)cc2)c1C", "assay": "microbial growth, broth dilution", "test system": "MRSA USA300", "setting": "drug-resistant strain", "MIC": "4 µg/mL"}
{"SMILES": "CCCCCCCCCCCN1C(=O)/C(=N\\NC(=N)N)c2cc(C)ccc21", "assay": "broth microdilution", "test system": "BAA41 MRSA", "setting": "18 h, 37 °C", "MIC": "6 µg/mL"}
{"note": "For quick reference, copied from above:"}
{"SMILES": "CCCCCCCCOC(=O)[C@@H]1NC(=O)[C@@H]2Cc3ccc(cc3)Oc3cc4cc(c3O)-c3ccc5c(c[nH]c5c3)C[C@@H](NC(=O)C(N)c3ccc(O)cc3)C(=O)N[C@H](c3ccc(O)cc3)C(=O)N[C@H]4C(=O)N[C@@H](C(=O)N2C)c2ccc(cc2)Oc2cc1ccc2O (stereo partly shown)", "test system": "ATCC 33591 MRSA, Mueller-Hinton broth", "MIC": "> 128 µg/mL"}
{"SMILES": "C/C(=N\\NC(=N)N)c1nnn(-c2ccc(S(=O)(=O)NCC(C)C)cc2)c1C", "assay": "microbial growth, broth dilution", "test system": "MRSA USA300", "setting": "drug-resistant strain", "MIC": "4 µg/mL"}
